# Published values pooled from the literature.
# Protocols differ between the studies behind these lines. Numbers after ± are the reported error.
# BACE1: Beta-secretase 1 (BACE1, Homo sapiens, UniProt P56817)
# Chain of UniProt P56817 (whole entry, looked up): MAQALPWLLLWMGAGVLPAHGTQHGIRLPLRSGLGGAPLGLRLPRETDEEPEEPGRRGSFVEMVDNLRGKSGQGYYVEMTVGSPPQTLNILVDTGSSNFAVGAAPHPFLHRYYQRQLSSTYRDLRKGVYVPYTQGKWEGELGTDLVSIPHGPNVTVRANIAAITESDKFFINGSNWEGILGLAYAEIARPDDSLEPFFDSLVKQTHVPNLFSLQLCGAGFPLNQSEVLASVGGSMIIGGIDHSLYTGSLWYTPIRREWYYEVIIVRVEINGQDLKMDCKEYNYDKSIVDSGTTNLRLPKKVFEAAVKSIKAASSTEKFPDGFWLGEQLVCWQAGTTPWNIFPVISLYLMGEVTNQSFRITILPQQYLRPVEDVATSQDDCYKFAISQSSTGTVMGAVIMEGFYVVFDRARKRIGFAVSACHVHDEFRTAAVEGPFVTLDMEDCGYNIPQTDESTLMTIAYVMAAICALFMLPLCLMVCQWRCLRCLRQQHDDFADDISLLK
# Chain of UniProt P00691 (whole entry, looked up): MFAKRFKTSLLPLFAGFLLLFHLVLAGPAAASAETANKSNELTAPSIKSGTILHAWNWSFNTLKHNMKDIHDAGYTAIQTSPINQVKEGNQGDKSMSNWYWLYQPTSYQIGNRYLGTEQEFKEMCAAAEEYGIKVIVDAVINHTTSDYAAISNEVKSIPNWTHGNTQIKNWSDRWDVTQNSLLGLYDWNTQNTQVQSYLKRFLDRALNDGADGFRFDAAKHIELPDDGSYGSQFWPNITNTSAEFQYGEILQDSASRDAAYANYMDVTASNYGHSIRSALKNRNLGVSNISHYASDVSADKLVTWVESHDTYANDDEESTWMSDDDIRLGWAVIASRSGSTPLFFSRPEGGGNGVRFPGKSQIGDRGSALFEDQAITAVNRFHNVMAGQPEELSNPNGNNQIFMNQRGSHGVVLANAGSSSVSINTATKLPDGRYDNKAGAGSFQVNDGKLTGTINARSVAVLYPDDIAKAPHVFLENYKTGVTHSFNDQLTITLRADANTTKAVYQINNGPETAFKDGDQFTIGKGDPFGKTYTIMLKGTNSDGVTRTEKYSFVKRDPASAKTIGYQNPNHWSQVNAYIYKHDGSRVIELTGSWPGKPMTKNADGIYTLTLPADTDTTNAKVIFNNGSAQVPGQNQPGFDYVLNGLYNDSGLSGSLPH
# Chain of UniProt P34975 (whole entry, looked up): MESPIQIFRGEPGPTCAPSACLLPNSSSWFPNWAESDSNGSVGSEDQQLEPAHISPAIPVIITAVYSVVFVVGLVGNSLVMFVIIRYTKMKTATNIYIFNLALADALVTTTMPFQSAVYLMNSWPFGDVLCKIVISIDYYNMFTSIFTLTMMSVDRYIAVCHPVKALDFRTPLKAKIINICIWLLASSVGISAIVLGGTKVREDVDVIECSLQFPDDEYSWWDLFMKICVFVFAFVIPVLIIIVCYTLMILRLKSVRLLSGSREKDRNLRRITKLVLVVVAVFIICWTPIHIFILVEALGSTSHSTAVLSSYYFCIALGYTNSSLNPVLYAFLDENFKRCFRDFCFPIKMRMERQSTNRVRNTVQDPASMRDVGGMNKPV
# Chain of UniProt Q92769 (whole entry, looked up): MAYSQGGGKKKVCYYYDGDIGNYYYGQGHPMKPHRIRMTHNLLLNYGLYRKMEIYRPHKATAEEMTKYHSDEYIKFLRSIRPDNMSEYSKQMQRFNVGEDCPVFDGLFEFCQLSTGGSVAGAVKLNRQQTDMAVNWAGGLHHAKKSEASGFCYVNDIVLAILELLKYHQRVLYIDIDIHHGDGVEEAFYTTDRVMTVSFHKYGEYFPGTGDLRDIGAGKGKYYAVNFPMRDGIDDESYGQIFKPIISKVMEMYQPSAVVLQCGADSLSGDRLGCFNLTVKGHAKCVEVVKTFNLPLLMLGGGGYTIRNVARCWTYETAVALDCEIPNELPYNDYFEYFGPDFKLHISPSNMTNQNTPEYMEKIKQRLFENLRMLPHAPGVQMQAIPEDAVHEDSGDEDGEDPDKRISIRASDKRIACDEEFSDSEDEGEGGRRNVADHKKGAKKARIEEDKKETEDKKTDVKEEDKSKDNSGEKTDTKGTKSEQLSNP
# Chain of UniProt Q62968 (whole entry, looked up): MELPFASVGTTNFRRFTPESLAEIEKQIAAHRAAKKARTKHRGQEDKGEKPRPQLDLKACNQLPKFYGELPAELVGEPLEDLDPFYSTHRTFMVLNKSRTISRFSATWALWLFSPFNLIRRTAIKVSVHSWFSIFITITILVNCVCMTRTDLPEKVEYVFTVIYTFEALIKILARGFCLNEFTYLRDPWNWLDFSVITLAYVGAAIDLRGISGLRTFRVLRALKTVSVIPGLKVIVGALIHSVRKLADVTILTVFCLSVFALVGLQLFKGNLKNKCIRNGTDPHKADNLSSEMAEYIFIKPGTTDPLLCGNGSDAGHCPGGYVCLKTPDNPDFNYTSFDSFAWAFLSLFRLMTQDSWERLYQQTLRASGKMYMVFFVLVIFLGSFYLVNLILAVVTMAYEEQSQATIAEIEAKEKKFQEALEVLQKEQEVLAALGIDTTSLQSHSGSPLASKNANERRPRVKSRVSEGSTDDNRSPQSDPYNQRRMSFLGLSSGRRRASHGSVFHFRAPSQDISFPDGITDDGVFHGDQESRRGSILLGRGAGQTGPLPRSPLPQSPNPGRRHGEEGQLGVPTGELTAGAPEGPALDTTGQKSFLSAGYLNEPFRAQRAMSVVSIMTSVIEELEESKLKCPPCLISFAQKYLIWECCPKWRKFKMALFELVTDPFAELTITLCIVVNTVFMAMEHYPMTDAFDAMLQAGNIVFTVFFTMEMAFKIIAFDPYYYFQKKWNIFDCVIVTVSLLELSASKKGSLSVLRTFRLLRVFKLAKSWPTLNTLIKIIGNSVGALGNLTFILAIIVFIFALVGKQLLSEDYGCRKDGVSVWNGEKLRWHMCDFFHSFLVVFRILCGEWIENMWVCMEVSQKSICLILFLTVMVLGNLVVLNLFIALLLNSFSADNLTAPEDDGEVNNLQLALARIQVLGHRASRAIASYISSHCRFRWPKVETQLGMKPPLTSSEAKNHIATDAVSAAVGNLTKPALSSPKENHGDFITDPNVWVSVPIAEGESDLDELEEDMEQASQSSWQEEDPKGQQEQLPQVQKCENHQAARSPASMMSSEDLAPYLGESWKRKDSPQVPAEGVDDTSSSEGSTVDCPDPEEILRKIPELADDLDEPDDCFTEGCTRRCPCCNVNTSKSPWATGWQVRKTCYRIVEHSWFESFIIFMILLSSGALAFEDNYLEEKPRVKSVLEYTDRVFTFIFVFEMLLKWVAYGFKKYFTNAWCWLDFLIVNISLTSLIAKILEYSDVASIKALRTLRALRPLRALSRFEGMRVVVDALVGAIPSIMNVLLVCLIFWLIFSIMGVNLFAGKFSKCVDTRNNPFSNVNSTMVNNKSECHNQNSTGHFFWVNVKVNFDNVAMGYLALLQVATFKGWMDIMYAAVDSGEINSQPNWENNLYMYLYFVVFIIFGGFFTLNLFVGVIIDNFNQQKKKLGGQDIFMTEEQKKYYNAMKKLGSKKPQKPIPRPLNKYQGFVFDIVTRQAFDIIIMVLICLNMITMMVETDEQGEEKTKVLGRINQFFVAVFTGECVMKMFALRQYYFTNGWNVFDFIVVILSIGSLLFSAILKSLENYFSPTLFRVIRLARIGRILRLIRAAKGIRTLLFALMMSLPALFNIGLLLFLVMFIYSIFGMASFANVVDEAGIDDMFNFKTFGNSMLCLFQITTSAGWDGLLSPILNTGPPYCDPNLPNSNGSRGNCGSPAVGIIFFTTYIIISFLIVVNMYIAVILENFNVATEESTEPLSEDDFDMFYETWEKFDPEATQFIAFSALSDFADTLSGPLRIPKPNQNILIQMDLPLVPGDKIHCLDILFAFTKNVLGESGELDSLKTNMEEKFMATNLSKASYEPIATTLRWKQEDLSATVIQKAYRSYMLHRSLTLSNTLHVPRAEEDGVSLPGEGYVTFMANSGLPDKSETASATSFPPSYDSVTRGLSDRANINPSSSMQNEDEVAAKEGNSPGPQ
SMILES,target,assay,system,conditions,scale,quantity,result
Nc1ncc2ncn([C@@H]3O[C@@H]4COP(=O)(O)O[C@H]5[C@@H](O)[C@H](n6cnc7cnc(N)nc76)O[C@@H]5COP(=O)(O)O[C@H]4[C@H]3O)c2n1,ydaO riboswitch wild type (Bacillus subtilis),competition gel-shift,,concentration not given,"reference: c-di-AMP, higher = weaker binding",binding affinity fold loss,> 4.5e+06
Cn1ccc(-c2ccc(Cn3cc(C(=O)N[C@H]4CCCC[C@@H]4O)c4c(F)cc(F)cc43)cn2)n1,"Muscarinic acetylcholine receptor M1 (CHRM1, Homo sapiens, UniProt P11229)","calcium mobilization, positive allosteric modulator",CHO,added: acetylcholine EC20,reference: acetylcholine maximum,maximal response,86 ± 1%
CN1CCC(Nc2cccc3c2cc(C#CCNc2ccc(P(C)(C)=O)cc2)n3CC(F)(F)F)CC1,"Cellular tumor antigen p53 (TP53, Homo sapiens, UniProt P04637, Y220C)","thermal stabilisation, nano differential scanning fluorimetry",,,reference: DMSO,ΔTm,4.55 ± 0.1 °C
O=C(NCc1ccc(F)cc1)c1nc(NCCO)c2cccnc2c1O,"Tripartite terminase subunit 3, C-terminal nuclease domain (Human betaherpesvirus 5, UniProt P16732)",thermal shift,,"20 µM, unit not given",reference: DMSO,ΔTm,> 0
C[C@]1(COC(=O)Cc2ccc(O)c(O)c2)[C@H](C(=O)O)N2C(=O)/C(=C/c3ccccn3)[C@H]2S1(=O)=O,"Beta-lactamase OXA-23 (OXA-23, Acinetobacter baumannii, UniProt Q9L4P2)","enzyme activity, inhibitor, absorbance",,,,kinact/KI,140000 M⁻¹ s⁻¹
O=C(O)CN(c1ccccc1)S(=O)(=O)c1ccccc1,"Beta-lactamase (ampC, Escherichia coli K-12, UniProt P00811)",,,,,ligand efficiency,0.26
O=C(/C=C/c1ccc(Br)cc1)c1cc2ccccc2oc1=O,BACE1,"enzyme activity, inhibitor, fluorescence",,10 µM,,remaining activity,75.6%
O=C(N=P12CN3CN(CN(C3)C1)C2)c1ccccn1.[Cl][Pt][Cl],"Albumin (ALB, Homo sapiens, UniProt P02768)","binding, circular dichroism",,"20 h, pH 7.39, 37 °C",,saturating equivalents,6 equivalents
CC(=O)N[C@H]1[C@@H](OP(=O)(O)OP(=O)(O)OC/C=C(/C)CC/C=C(/C)CC/C=C(/C)CC/C=C(/C)CC/C=C(/C)CC/C=C(/C)CC/C=C(/C)CC/C=C(/C)CC/C=C(\C)CC/C=C(\C)CCC=C(C)C)O[C@H](CO)[C@@H](O)[C@@H]1O[C@H](C)C(=O)N[C@@H](C)C(=O)N[C@H](CCC(=O)N[C@@H](CCCCNC(=O)OCCCCCCNC(=S)Nc1ccc(NS(=O)(=O)c2cccc3c(N(C)C)cccc23)cc1)C(=O)N[C@H](C)C(=O)N[C@H](C)C(=O)O)C(=O)O,"UDP-N-acetylglucosamine--N-acetylmuramyl-(pentapeptide) pyrophosphoryl-undecaprenol N-acetylglucosamine transferase (murG, Mycolicibacterium smegmatis, UniProt A0R016)",substrate,,added: UDP-GlcNAc 93.8 µM,,Km,36 ± 5 µM
NC(CNC(CNC(CC(=O)O)C(=O)O)C(=O)O)C(=O)O (centres unmarked),KPC-2,"enzyme activity, inhibitor",,"enzyme 5 nM, added: nitrocefin 30 µM",,IC50,no effect
CNC(=O)c1cccc(-c2ccc(O[C@H]3O[C@H](CO)[C@@H](O)[C@H](O)[C@@H]3O)c(C)c2)c1,"Type 1 fimbrin D-mannose specific adhesin, lectin domain (fimH, Escherichia coli K-12, UniProt P08191)","binding, differential scanning fluorimetry",,,higher = stronger binding,melting temperature,75.5 °C
CN1CCN(C(=O)N[C@@H](Cc2ccccc2)C(=O)N[C@H](/C=C/S(=O)(=O)c2ccccc2)CCc2ccccc2)CC1,"Cathepsin B (CTSB, Homo sapiens, UniProt P07858)",inactivator,,"pH 5.5, 25 °C, added: Z-FR-AMC",,kinact,0.026 ± 0.007 s⁻¹
CC(C)C[C@H](NC(=O)[C@H](CO)NC(=O)[C@H](Cc1ccc(O)cc1)NC(=O)CNC(=O)[C@H](CCCNC(=N)N)NC(=O)[C@H](Cc1ccc(O)cc1)NC(=O)[C@H](CC(N)=O)NC(=O)[C@@H](N)CC(=O)O)C(=O)NCC(=O)N[C@@H](CC(N)=O)C(=O)N[C@@H](Cc1c[nH]c2ccccc12)C(=O)N[C@H](C(=O)N[C@@H](CO)C(=O)N[C@@H](C)C(=O)N[C@@H](C)C(=O)N[C@@H](CCCCN)C(=O)N[C@@H](Cc1ccccc1)C(=O)N[C@@H](CCC(=O)O)C(=O)N[C@@H](CO)C(=O)N[C@@H](CC(N)=O)C(=O)O)C(C)C,"Periplasmic serine endoprotease DegP (degP, Escherichia coli, UniProt P0C0V0)","reporter cleavage, activator",,"added: protease 1 µM, reporter 100 µM",,concentration for maximal activation,100 to 200 µM
CC[C@H](C)[C@H](NC(=O)[C@H](CC(=O)O)NC(=O)CNC(=O)[C@@H](NC(=O)[C@@H](NC(=O)[C@H](CCC(=O)O)NC(=O)CNC(=O)CCCCCNC(=O)CCCC[C@@H]1SC[C@@H]2NC(=O)N[C@@H]21)[C@@H](C)CC)[C@@H](C)CC)C(=O)N[C@@H](CCCNC(=N)N)C(=O)N[C@@H](CCC(N)=O)C(=O)N[C@@H](C)C(=O)N[C@@H](Cc1c[nH]cn1)C(=O)N[C@@H](CO)C(=O)N[C@@H](CC(=O)N[C@@H]1O[C@H](CO)[C@@H](O[C@@H]2O[C@H](CO)[C@@H](O[C@@H]3O[C@H](CO[C@H]4O[C@H](CO[C@H]5O[C@H](CO)[C@@H](O)[C@H](O)[C@@H]5O[C@H]5O[C@H](CO)[C@@H](O)[C@H](O)[C@@H]5O)[C@@H](O)[C@H](O[C@H]5O[C@H](CO)[C@@H](O)[C@H](O)[C@@H]5O[C@H]5O[C@H](CO)[C@@H](O)[C@H](O)[C@@H]5O)[C@@H]4O)[C@@H](O)[C@H](O[C@H]4O[C@H](CO)[C@@H](O)[C@H](O)[C@@H]4O[C@H]4O[C@H](CO)[C@@H](O)[C@H](O)[C@@H]4O[C@H]4O[C@H](CO)[C@@H](O)[C@H](O)[C@@H]4O)[C@@H]3O)[C@H](O)[C@H]2NC(C)=O)[C@H](O)[C@H]1NC(C)=O)C(=O)N[C@H](C(=O)N[C@@H](CO)C(=O)N[C@@H](CCCNC(=N)N)C(=O)N[C@@H](C)C(=O)N[C@@H](CCCCN)C(=O)N[C@@H](Cc1c[nH]c2ccccc12)C(=O)N[C@@H](CC(N)=O)C(N)=O)[C@@H](C)CC,antibody 10-1074,SPR,,"concentration not given, 25 °C",,binding,no binding
C[C@]12CC[C@@H]3c4cc(Cl)c(O)c(Cl)c4CC[C@H]3[C@@H]1CCC2=O,"Aldo-keto reductase family 1 member C1 (AKR1C1, Homo sapiens, UniProt Q04828)","enzyme activity, inhibitor, absorbance",,"100 µM, pH 9",,inhibition,94.8%
CCCCCCCCCCCCCCCc1ccc(C(Br)P(=O)(O)O)cc1 (racemic),"Autotaxin (ENPP2, Homo sapiens, UniProt Q13822)",,,enzyme substrate complex,,Ki′,2970 nM
CC(C)P(=S)(NP(=[Se])(C(C)C)C(C)C)C(C)C,"Alpha-amylase (Bacillus subtilis, UniProt P00691)",fluorescence quenching,,"concentration not given, 310 K",,number of binding sites,0.73 ± 0.05
COC(=O)N(C)[C@@H](Cc1ccccc1)C(=O)N[C@@H](Cc1ccccc1)C(=O)N[C@@H](Cc1c[nH]c2ccccc12)C(=O)N[C@@H](CCCNC(=N)N)C(=O)N[C@@H](CC(C)C)C(=O)N[C@@H](CCCNC(=N)N)C(=O)N[C@@H](CCCNC(=N)N)C(=O)N[C@H](C)C(=O)N[C@@H](CCCNC(=N)N)C(=O)N1CCC[C@H]1C(=O)N[C@@H](CCCCN)C(N)=O,"Kappa-type opioid receptor (Oprk1, Rattus norvegicus, UniProt P34975)",agonist,CHO cells,10 µM,reference: dynorphin A(1-13) amide,adenylyl cyclase activity,98 ± 13%
Cc1c(-c2cccc(C3=NCCN3)c2)oc(-c2cccc(C3=NCCN3)c2)c1C,androgen receptor promoter G-quadruplex DNA,"G-quadruplex stabilisation, FRET melting",,1 µM,,ΔTm,15.4 °C
CCN(Cc1ccccc1)C(=O)CCc1nc(CN2CCN(C(=O)Cc3ccc(OC)c(OC)c3)CC2)no1,"Sodium channel protein type 10 subunit alpha (Scn10a, Rattus norvegicus, UniProt Q62968)",whole-cell patch clamp,rat DRG neurons,300 nM,,V1/2 of inactivation,-64.5 ± 10.1 mV
C#CCN(Cc1ccc(NC(=O)CCCCCCC(=O)Nc2ccccc2N)cc1)Cc1c(F)c(F)c(N=[N+]=[N-])c(F)c1F,"Histone deacetylase 2 (HDAC2, Homo sapiens, UniProt Q92769)",photolabeling,SET-2,,,lowest labeling concentration,≤ 200 nM
Cc1ccc(/C=C/C(=O)c2ccc(N3CCNCC3)cc2)cc1,BACE1,"enzyme activity, inhibitor, fluorescence",,10 µM,,remaining activity,55.5%
CC(=O)N[C@@H](CC(C)C)C(=O)N[C@@H](CCC(=O)O)C(=O)N[C@@H](Cc1c[nH]cn1)C(=O)N[C@@H](CC(=O)O)C(=O)Nc1ccc2c(C)cc(=O)oc2c1,"Caspase-4 (Casp4, Mus musculus, UniProt P70343)",substrate,,concentration not given,,Vmax,1190 ± 30.8 RFU/min

# Some of these lines once more:
SMILES,target,assay,system,conditions,scale,quantity,result
CCCCCCCCCCCCCCCc1ccc(C(Br)P(=O)(O)O)cc1 (racemic),"Autotaxin (ENPP2, Homo sapiens, UniProt Q13822)",,,enzyme substrate complex,,Ki′,2970 nM
O=C(O)CN(c1ccccc1)S(=O)(=O)c1ccccc1,"Beta-lactamase (ampC, Escherichia coli K-12, UniProt P00811)",,,,,ligand efficiency,0.26
